Assay results collected from several papers.
± gives the spread as reported.
rep main protease: Replicase polyprotein 1ab, main protease (rep, Severe acute respiratory syndrome coronavirus 2, UniProt P0DTD1)

SMILES = Cc1nn(-c2ccc(Cl)cc2)c2c1C(c1ccc(Cl)c(Cl)c1)C(C#N)=C(N)O2 (centres unmarked); target or system = SARS-CoV-2; assay = viral replication; system = Vero; conditions = 1 µM; quantity = inhibition; value = 3.03%
SMILES = Cn1cncc1[C@@](N)(c1ccc(Cl)cc1)c1ccc2c(c1)c(-c1cccc(Cl)c1)cc(=O)n2C; target or system = SARS-CoV-2; assay = viral replication; system = Vero C1008, USA-WA1/2020; conditions = 2.5 µM, reconfirmation; quantity = inhibition; value = 42.6%
SMILES = Nc1ncnc2c([C@@H]3N[C@H](CO)[C@@H](O)[C@H]3O)c[nH]c12; target or system = Marburg marburgvirus; assay = viral RNA in supernatant; system = HeLa, Musoke; conditions = 0.8 µM, 12 h; quantity = inhibition; value = 7.6%
SMILES = O=C(CSc1nc2c(c(=O)[nH]1)CCCC2)NNC(=O)c1ccc([N+](=O)[O-])cc1; target or system = SARS-CoV-2; assay = virucidal activity, plaque reduction; conditions = 62.5 µM; quantity = inhibition; value = 33.6 ± 6.03%
SMILES = CCC(=O)N[C@H](C[C@H](C)C(Cl)(Cl)Cl)C(=O)N1C(=O)C=C(OC)[C@@H]1C[C@H](C)C(Cl)(Cl)Cl; target or system = SARS-CoV-2; assay = viral replication, mNeonGreen reporter virus; conditions = 50 µM; quantity = inhibition; value = 1.17%
SMILES = COCC12CN(S(=O)(=O)c3ccc4cc(Cl)ccc4c3)CC(=O)N1CC1(CCN(c3ccncc3)CC1)O2 (centres unmarked); target or system = SARS-CoV-2; assay = viral replication; system = Vero E6, USA-WA1/2020; conditions = 2.5 µM; quantity = inhibition; value = 49.3%
SMILES = CCOC(=O)[C@@H](Cc1ccc(O)c(O)c1)OC(=O)/C=C/c1ccc(O)c(O)c1; target or system = rep main protease; assay = reporter gene (Gaussia luciferase), inhibitor; conditions = 20 µM; quantity = inhibition; value = -2.24%
SMILES = CC(C)c1oc2ccc(C#N)cc2c1-c1ccccn1; target or system = SARS-CoV-2; assay = viral replication; system = Vero E6, USA-WA1/2020; conditions = 2.5 µM; quantity = inhibition; value = 50.9%
SMILES = NCc1cccnc1; target or system = rep main protease; assay = reporter gene (mKate2), inhibitor; conditions = 20 µM; quantity = inhibition; value = 0.0392%
SMILES = O=C(CSc1nc2ccccc2c(=O)[nH]1)NNC(=O)c1ccccc1Br; target or system = SARS-CoV-2; assay = viral adsorption, plaque reduction; conditions = 31.25 µM; quantity = inhibition; value = 16.7 ± 3.35%
SMILES = CCc1occc(=O)c1[O][V](=[O])[O]c1c(CC)occc1=O; target or system = SARS-CoV-2; assay = viral replication; system = USA-WA1/2020; conditions = 2.5 µM; quantity = inhibition; value = 41%
SMILES = O=C(/C=C/c1ccc(O)c(O)c1/C=C/c1ccc(O)c(O)c1)O[C@H](Cc1ccc(O)c(O)c1)C(=O)O; target or system = SARS-CoV-2; assay = viral cytopathic effect; system = Vero E6; conditions = 6.25 µM; quantity = inhibition; value = 0%
SMILES = CN[C@@H](C)C(=O)N[C@H](C(=O)N1CCC[C@H]1C(=O)Nc1snnc1-c1ccccc1)C1CCCCC1; target or system = SARS-CoV-2; assay = viral replication; system = Vero E6, USA-WA1/2020; conditions = 2.5 µM; quantity = inhibition; value = 42.2%
SMILES = Cc1nn(-c2ccc(Cl)cc2)c2c1C(c1c(Cl)cccc1Cl)C(C#N)=C(N)O2 (centres unmarked); target or system = SARS-CoV-2; assay = viral replication; system = Vero; conditions = 1 µM; quantity = inhibition; value = 5.3%
SMILES = CC[C@H](C)[C@H](NC(=O)[C@H](CC(C)C)NC(=O)[C@H](Cc1c[nH]c2ccccc12)NC(=O)[C@H](CCC(N)=O)NC(=O)[C@@H](NC(=O)[C@H](Cc1ccccc1)NC(=O)[C@H](C)NC(=O)[C@H](CCCCNC(=O)COCCOCCNC(=O)COCCOCCNC(=O)CC[C@H](NC(=O)CCCCCCCCCCCCCCCCCCC(=O)O)C(=O)O)NC(=O)[C@H](CCC(N)=O)NC(=O)[C@H](C)NC(=O)[C@@H](NC(=O)[C@H](CCCCN)NC(=O)[C@H](CC(=O)O)NC(=O)[C@H](CC(C)C)NC(=O)C(C)(C)NC(=O)[C@@H](NC(=O)[C@H](CO)NC(=O)[C@H](Cc1ccc(O)cc1)NC(=O)[C@H](CC(=O)O)NC(=O)[C@H](CO)NC(=O)[C@@H](NC(=O)[C@H](Cc1ccccc1)NC(=O)[C@@H](NC(=O)CNC(=O)[C@H](CCC(=O)O)NC(=O)C(C)(C)NC(=O)[C@@H](N)Cc1ccc(O)cc1)[C@@H](C)O)[C@@H](C)O)[C@@H](C)CC)[C@@H](C)CC)C(C)C)C(=O)N[C@@H](C)C(=O)NCC(=O)NCC(=O)N1CCC[C@H]1C(=O)N[C@@H](CO)C(=O)N[C@@H](CO)C(=O)NCC(=O)N[C@@H](C)C(=O)N1CCC[C@H]1C(=O)N1CCC[C@H]1C(=O)N1CCC[C@H]1C(=O)N[C@@H](CO)C(N)=O; system = healthy subjects, single ascending dose; conditions = 1.0 mg, day 29; quantity = serum lipase; value = 30.2 ± 22.3 U/L
SMILES = Cn1cnc(Cn2c(=O)[nH]/c(=N\c3cc4cn(C)nc4cc3Cl)n(Cc3cc(F)c(F)cc3F)c2=O)n1; target or system = SARS-CoV-2; assay = viral replication; system = Vero C1008, wild type; conditions = 0.005716 µM; quantity = inhibition; value = 0%
SMILES = O=C(O[C@@H]1Cc2c(O)cc(O)cc2O[C@@H]1c1cc(O)c(O)c(O)c1)c1cc(O)c(O)c(O)c1; target or system = SARS-CoV-2; assay = viral cytopathic effect; system = Vero E6; conditions = 3.125 µM; quantity = inhibition; value = 0%
SMILES = Cc1nc(C)c(CCC(=O)N2C[C@]34CCC[C@@]3(C2)CN(C(=O)[C@@H]2CCC(=O)NC2)C4)c(=O)[nH]1; target or system = rep main protease; assay = enzyme activity, inhibitor; conditions = 5 µM; quantity = inhibition; value = 12.8%
SMILES = CNC(=O)[C@@H](NC(=O)[C@H](CC(C)C)[C@H](O)C(=O)NO)C(C)(C)C; target or system = C2C12; conditions = 1 µM, together with: WB venom; scale = reference: venom alone; quantity = viability difference; value = 3.99%
SMILES = Cn1cnc(Cn2c(=O)[nH]/c(=N\c3cc4cn(C)nc4cc3Cl)n(Cc3cc(F)c(F)cc3F)c2=O)n1; system = human, normal renal function; conditions = oral, 375 mg; quantity = dry mouth TEAE, Moderate severity; value = 0%
SMILES = c1ccc2sc(C3(N4CCCCC4)CCCCC3)cc2c1; target or system = SARS-CoV-2; assay = viral replication; system = Vero E6, USA-WA1/2020; conditions = 2.5 µM; quantity = inhibition; value = 52.7%
SMILES = CC(C)(C)[C@H](NC(=O)C(F)(F)F)C(=O)N1C[C@H]2[C@@H]([C@H]1C(=O)N[C@H](C#N)C[C@@H]1CCNC1=O)C2(C)C; target or system = SARS-CoV-2; assay = viral replication, measured: nucleocapsid; system = NHBE, Omicron BA.5; conditions = 1 µM, 3 h pretreatment; quantity = inhibition; value = 78.5%
SMILES = CC(C)(C)[C@H](NC(=O)C(F)(F)F)C(=O)N1C[C@H]2[C@@H]([C@H]1C(=O)N[C@H](C#N)C[C@@H]1CCNC1=O)C2(C)C; target or system = SARS-CoV-2; assay = viral replication, infectious virus; system = Vero E6; conditions = 0.00046 µM; quantity = inhibition; value = 5.79%
SMILES = CCN(CCO)CCCC(C)Nc1ccnc2cc(Cl)ccc12 (centres unmarked); target or system = SARS-CoV-2; conditions = 30 µM; quantity = inhibition; value = 23.7%
SMILES = COc1ccc(C[C@@H]2c3cc(Oc4cc(C[C@@H]5c6cc(O)c(OC)cc6CCN5C)ccc4O)c(OC)cc3CCN2C)cc1; target or system = SARS-CoV-2; assay = viral cytopathic effect; system = Vero E6; conditions = 1.562 µM; quantity = inhibition; value = 0%
SMILES = CC1=CCC[C@@H](C)[C@]1(C)CC[C@@]1(C)[C@@H]2CC[C@]3(C)[C@H](CC[C@]4(C)c5c(C(O)C(=O)O)ccc(O)c5C[C@@H]34)[C@@]2(C)CC[C@@H]1O (some centres unmarked); target or system = SARS-CoV-2; assay = viral replication, mNeonGreen reporter virus; conditions = 50 µM; quantity = inhibition; value = 5.42%

Excerpt of the above:
SMILES = Cn1cnc(Cn2c(=O)[nH]/c(=N\c3cc4cn(C)nc4cc3Cl)n(Cc3cc(F)c(F)cc3F)c2=O)n1; system = human, normal renal function; conditions = oral, 375 mg; quantity = dry mouth TEAE, Moderate severity; value = 0%
